Experimental data from different studies.
Numbered parts are unrelated; each lists some results of a single study. Positions count from the first letter of the parent shown.

Study 1 — method: DHFR PCA, deep sequencing; medium: yeast; added: (+)-ABA 58 µM; reference: wild-type fitted maximum; direction: higher = stronger binding; endpoint: relative binding score
Target: ABI1, truncated, D143A, DHFR fusion (Arabidopsis thaliana)
Setting: methotrexate growth selection, single substitutions
Starting sequence: PYL1, truncated, DHFR fusion (Arabidopsis thaliana); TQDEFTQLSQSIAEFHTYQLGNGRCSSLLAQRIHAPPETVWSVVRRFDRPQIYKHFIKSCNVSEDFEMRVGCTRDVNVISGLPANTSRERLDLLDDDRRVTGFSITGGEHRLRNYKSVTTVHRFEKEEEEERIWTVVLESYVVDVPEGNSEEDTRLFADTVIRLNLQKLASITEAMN; partner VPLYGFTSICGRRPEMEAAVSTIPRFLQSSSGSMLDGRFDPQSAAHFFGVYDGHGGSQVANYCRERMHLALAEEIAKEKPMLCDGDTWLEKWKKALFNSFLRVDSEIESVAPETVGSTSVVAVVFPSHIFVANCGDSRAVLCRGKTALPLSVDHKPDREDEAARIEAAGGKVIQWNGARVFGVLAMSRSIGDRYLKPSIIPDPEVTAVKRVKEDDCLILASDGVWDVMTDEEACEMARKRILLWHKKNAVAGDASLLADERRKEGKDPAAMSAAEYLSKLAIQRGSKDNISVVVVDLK
Change = D96T; value = 23.1%
Change = L169P; value = 13.3%
Change = L29P; value = -10.1%
Change = T154F; value = -13.6%
Change = R98N; value = 77.3%
Change = I133G; value = 97.4%
Change = D92F; value = 15.8%
Change = R90L; value = 33.7%
Change = T120F; value = -0.297%
Change = T135W; value = 4.73%
Change = L164I; value = 77.6%
Change = E174P; value = 42.4%
Change = L164W; value = 74.7%
Change = S104K; value = 31.9%
Change = K126L; value = 95%
Change = R113H; value = 90.5%
Change = R111Q; value = 54%
Change = E4Q; value = 79.6%
Change = L138W; value = -0.0675%
Change = I162M; value = 18.9%
Change = L93C; value = 87.5%
Change = N61F; value = 83%
Change = M68H; value = 84.5%
Change = S11C; value = 88.4%
Change = R123F; value = 66.6%

Study 2 — method: RNA Bind-n-Seq; form: RNA; medium: in vitro; concentration: 200 nM; setting: whole 134-nt RNA, ends assumed; added: 150 mM LiCl; reference: input library; direction: higher = stronger binding; endpoint: log2 enrichment; library: 7-deaza-guanosine replaces G
Target: Ras GTPase-activating protein-binding protein 1, full length (G3BP1, Homo sapiens, UniProt Q13283)
Sequence of UniProt Q13283 (whole entry, looked up): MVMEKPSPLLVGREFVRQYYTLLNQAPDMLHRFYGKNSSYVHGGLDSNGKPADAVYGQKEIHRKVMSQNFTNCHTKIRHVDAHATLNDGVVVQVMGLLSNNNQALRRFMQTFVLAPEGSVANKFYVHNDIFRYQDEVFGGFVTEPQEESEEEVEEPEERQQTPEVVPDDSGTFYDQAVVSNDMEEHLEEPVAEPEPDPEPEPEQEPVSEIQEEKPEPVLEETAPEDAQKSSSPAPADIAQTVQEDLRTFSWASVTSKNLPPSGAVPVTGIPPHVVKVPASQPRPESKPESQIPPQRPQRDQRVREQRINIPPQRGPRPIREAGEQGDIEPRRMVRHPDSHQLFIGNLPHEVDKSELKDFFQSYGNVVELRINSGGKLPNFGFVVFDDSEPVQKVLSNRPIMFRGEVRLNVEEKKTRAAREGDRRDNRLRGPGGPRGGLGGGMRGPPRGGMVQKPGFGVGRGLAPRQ
Shared flanks, not repeated: GGGAGUUCUACAGUCCGACGAUC … UGGAAUUCUCGGGUGUCAAGG
Sequence = AGUCCUGUGCUACACAUCGUAUGUACCGAAUCGGGCCCCGGGCCCCGGGCCCCGGGGAAAGUAUUAUGUUACGCCGUUCGGAUCUGCACU; value = -1.51
Sequence = UAACUUUAGAGGAGGAUCUGAUGGAUAUGGCAGUGGACGUGGAUUUGGGGAUGGCAAUAAUGGGUAUGGAGGAGGACCUGGAGGUGGCAA; value = 0.37
Sequence = UAACUUUAGAGGAGGAUCUGAUGGAUAUGGCAGUGGACGUGGAUUUGGGGAUGGCUAUAAUGGGUAUGGAGGAGGACCUCGAGGUGGCAA; value = 0.316
Sequence = UGGAGCUACAGAUGGUGUCCUUCCUGCCAGGUGUGUGUGGAGGCCAGUAUGAAGCUGAAAAAGCAGGUGACAGUGUGUGGGGCUGCCAUC; value = 0.748
Sequence = UGGUUCUGGCAUUUAUGACCCUUGUGAAAAAGAAGCCACUGAUGCUAUUGGGCAUCUAGACAGACAGCAACGGGAAGAUAUCACACAGAG; value = -0.864
Sequence = CAAGUCCUGUGCUACACAUCGUAUGUACCGAAUCAAAUUUAAAUUUAAAUUUAAAAAAGUAUUAUGUUACGCCGUUCGGAUCUGCACUUC; value = -1.79
Sequence = CCUGUGCUACACAUCGUAUGUACCGAAUCGGAAAAAAAGGAAAAAAAGGGGAAAAAAAGGAAAGUAUUAUGUUACGCCGUUCGGAUCUGC; value = -0.429
Sequence = ACCAUGCAGGUGGGCAUCUCUGGGAAGUGGGGCAAGGGGGGGAUAGGGAGGGGGGUAACACUUUGGGAACAGGUGGUCCCAGGUCGUUUC; value = 0.0371

Study 3 — method: RNA Bind-n-Seq; form: RNA; medium: in vitro; concentration: 365 nM; reference: no-protein control; direction: higher = stronger binding; endpoint: RBNS enrichment (R)
Target: RNA binding protein fox-1 homolog 2, RRM domain, GST-SBP tag (RBFOX2, Homo sapiens, UniProt O43251-10, residues 100-194)
Setting: natural RNA segment, single round, ends assumed
Shared flanks, not repeated: GGGAGUUCUACAGUCCGACGAUC … UGGAAUUCUCGGGUGCCAA
Target sequence (chain): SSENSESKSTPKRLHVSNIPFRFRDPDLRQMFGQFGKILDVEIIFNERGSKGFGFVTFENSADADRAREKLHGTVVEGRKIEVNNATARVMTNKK
Sequence = CCAGAGCCCACGAGGCUUGCAGAUCGGGGGCAUAGGAAUUUGGAAUCCAAGAGCUAUAAUUUUUAAAAAAAAAAAUCUUUUAUUUUAAUACAUUGUAGGAAAUCUUCAUA; value = 0.728
Sequence = CCAGUCUUAACGUUUAUCUUUGAAUGCUAUUUAUUCAAAUAGCGUGAGGAGUUAGAAGAUGAGGUGUCUAUGAUGUUGAUGUAAUGUAUACGUAGGCGAUAUAUGUAAGU; value = 0.487
Sequence = AUUUUUAUUUGACUCUGUGGCUCUAAGACUGCCUUGAACCGCCUGAGGCCUAUGCAUCUGAACAAGUGGGUCUCUCCCUUGAGCACCAGGAGUGGGUGCCAGCCGGCCCC; value = 0.48
Sequence = UGAAUUUCUGCCAGGAUUGAAUUAUUUUGAAAUCUCCUGUCUUUUUAAACUUUUUCAAAAUAGGUCUCUAAGGAAAACCAGCAGAACAUUAGCCUGUGCAAAACCAUCUG; value = 0.56
Sequence = CCUGACCUGCCAGUGAUGCCAAGAGGGGGAUCAAGCACUGGCCUCUGCCCCUCCUCCUUCCAGCACCUGCCAGAGCUUCUCCAGGAGGCCAAGCAGAGGCUCCCCUCAUG; value = 0.283
Sequence = UUACUGUGUAUCAGUUCUUUGUUAGGCAUGAACGUCUUUAUUAAUCCAUCAUUCUUUUCUUCAUUCAACAAAUAUGUAUUGAACACCUCCUAUAUGCCAGGCACUGUGCU; value = 1.47
Sequence = AGAUAGGGUCCCCCAGGCAGUCCCCAGUGGCGGGACACAGGGGUCCGGCUGUGGAGCUCCCCUGCCAGCCCCUGGAGCUCCAGGAGGGCCUGUUGGUCCCCUGUUCAGAA; value = 0.384
Sequence = UAAUGGCACUUUUGUCUUGUAGCUAUUUUGAGAUGUGGUCCAGAGCAUUUCAGCUGGGAGAUCUCCCUCUGGCCACCAGGACUCUGGCUACUGUUAAAAUCCUGAUGUUU; value = 0.802

Study 4 — method: protein binding microarray; form: double-stranded DNA, one strand shown; medium: in vitro; concentration: not given; reference: not given; direction: higher = stronger binding; endpoint: E-score
Target: Histone acetyltransferase KAT6A, winged helix 1, GST fusion (KAT6A, Homo sapiens, UniProt Q92794, residues 1-85)
Setting: 8-mer, flanks averaged, mean of 2 arrays, mostly near background
Construct (chain): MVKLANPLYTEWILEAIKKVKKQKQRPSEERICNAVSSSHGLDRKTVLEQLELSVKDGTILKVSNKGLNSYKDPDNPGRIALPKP
Sequence = CCGTTTTC; value = 0.114
Sequence = ACCGGCAA; value = 0.276
Sequence = GGCGTTCA; value = 0.0338
Sequence = CCATGCCA; value = -0.107
Sequence = ATGAACTG; value = -0.209
Sequence = GGAGGCGA; value = 0.0373
Sequence = AACATCGG; value = 0.1
Sequence = ATTGATAC; value = 0.0975
Sequence = CAAGGATC; value = -0.0898
Sequence = CGGCTTTC; value = 0.34
Sequence = ACAAGGGC; value = -0.0594
Sequence = AATAATCT; value = -0.196
Sequence = CGGTCTAA; value = 0.0562
Sequence = ACTCGAGG; value = -0.203
Sequence = GAACAGAC; value = 0.00094
Sequence = TCCTCTAA; value = -0.188
Sequence = TATATTAA; value = 0.0237
Sequence = CGTGGGAG; value = 0.0674
Sequence = CCATCGCA; value = -0.0162
Sequence = AGGGTTCC; value = -0.175
Sequence = CGGTCATA; value = 0.148
Sequence = ATGTGGAA; value = -0.187
Sequence = CGAAGAGA; value = -0.117
Sequence = AACTTATG; value = -0.312
Sequence = AAACTCTA; value = -0.154

Some of these lines once more (study 4):
Sequence = GAACAGAC; value = 0.00094
Sequence = CGGCTTTC; value = 0.34
Sequence = AACTTATG; value = -0.312
Sequence = AACATCGG; value = 0.1
Sequence = ATGAACTG; value = -0.209
Sequence = ATGTGGAA; value = -0.187
Sequence = ATTGATAC; value = 0.0975
Sequence = TATATTAA; value = 0.0237
Sequence = AAACTCTA; value = -0.154
